Results pooled from the literature.
Lines come from different studies, so protocols differ. ± marks the error that the study gave.

| Structure (SMILES) | test | test system | setting | Cmax |
| --- | --- | --- | --- | --- |
| CC(=O)Nc1ccc(OS(=O)(=O)O)cc1 |  | healthy volunteers, plasma | oral, 650 mg acetaminophen, day 6, together with: favipiravir 800 mg, extended | 2400 ng/mL |
| COc1cc2c3c(n(CCCN4CCOCC4)c(=O)c2cc1OC)-c1cc2c(cc1C3=O)OCO2 |  | patients, plasma | intravenous infusion, 20 mg/m^2 daily over 1 h, cycle 1 day 4 | 583 ng/mL |
| COc1ccc2c3c1O[C@H]1C[C@@H](OC(=O)c4ccccc4)C=C[C@@]31CCN(C)C2 |  | healthy elderly men, plasma | intranasal, 33 mg, single dose | 58.5 ng/mL |
| CN1CCN(c2ccc3nc(-c4c(N)c5c(F)cccc5[nH]c4=O)[nH]c3c2)CC1 |  | patients, plasma | oral, 300 mg daily 5 days on 2 off, day 19, maximum, together with: gemcitabine and capecitabine | 313 ng/mL |
| CCOc1cc([C@@H](CS(C)(=O)=O)N2C(=O)c3cccc(NC(C)=O)c3C2=O)ccc1O[C@@H]1O[C@H](C(=O)O)[C@@H](O)[C@H](O)[C@H]1O |  | severe renal impairment patients, plasma | oral, 30 mg of apremilast | 276 ng/mL |
| CC(C)=CCC[C@](C)(O[C@@H]1O[C@H](CO)[C@@H](O)[C@H](O)[C@H]1O)[C@H]1CC[C@]2(C)[C@@H]1[C@H](O)C[C@@H]1[C@@]3(C)CC[C@H](O[C@@H]4O[C@H](CO)[C@@H](O)[C@H](O)[C@H]4O[C@@H]4O[C@H](CO)[C@@H](O)[C@H](O)[C@H]4O)C(C)(C)[C@@H]3CC[C@]12C | LC-MS/MS | healthy volunteers, serum | oral, 3 g red ginseng | 1.77 ± 2.09 ng/mL |
| CO/N=C1\C[C@]2(C[C@@H]3C[C@@H](C/C=C(\C)C[C@@H](C)/C=C/C=C4\CO[C@@H]5[C@H](O)C(C)=C[C@@H](C(=O)O3)[C@]45O)O2)O[C@H](/C(C)=C/C(C)C)[C@H]1C |  | parasitized Corriedale lambs, plasma | oral, 0.2 mg/kg | 13.1 ± 2.53 ng/mL |
| COc1cc(OC)c(/C=C/S(=O)(=O)Cc2ccc(OC)c(NCC(=O)O)c2)c(OC)c1 |  | cancer patients, phase I, plasma | oral, 140 mg twice daily, day 1 cycle 1 | 200 ± 70 ng/mL |
| COc1cccc(N2CCN(C3=Nc4c(F)cccc4[C@H](CC(=O)O)N3c3cc(C(F)(F)F)ccc3OC)CC2)c1 | UHPLC-MS/MS | healthy women, plasma | intravenous infusion, 240 mg single dose, 30 min infusion, HPβCD formulation | 15800 ± 3510 ng/mL |
| N[C@]1(C(=O)O)[C@H]2[C@@H](C[C@@H]1F)[C@@H]2C(=O)O |  | healthy subjects, both sexes, plasma | oral, 10 mg TS-134 single dose, fed, mean | 34 ng/mL |
| C[C@]12C=CC(=O)C=C1CC[C@@H]1[C@@H]2[C@@H](O)C[C@@]2(C)[C@H]1C[C@H]1O[C@@H](C3CCCCC3)O[C@]12C(=O)CO |  | children with asthma, serum | inhaled, 80 µg ciclesonide, day 7, HFA-MDI with spacer, steady state | 0.106 ± 0.006 ng/mL |
| CCCC[C@H](NC(C)=O)C(=O)N[C@H]1CCC(=O)NC[C@@H](C(=O)N[C@@H](Cc2c[nH]c3ccccc23)C(N)=O)NC(=O)[C@H](CCCNC(=N)N)NC(=O)[C@@H](Cc2ccccc2)NC(=O)[C@H](Cc2c[nH]cn2)NC1=O |  | healthy volunteers, plasma | subcutaneous, 1.0 mg once daily, day 7, steady state geometric mean | 20.1 ng/mL |
| CS(=O)(=O)n1cc2c(n1)CN([C@H]1CO[C@H](c3cc(F)ccc3F)[C@@H](N)C1)C2 |  | healthy Japanese men, plasma | oral, 10 mg once weekly, day 1 | 237 nM |
| O=C(Cc1cccc(OC(F)(F)F)c1)Nc1ccc(CCCCc2nnc(NC(=O)Cc3ccccn3)s2)nn1 |  | patients, plasma | oral, 600 mg twice daily, fed, steady state, cycle 1 day 15, mean | 1460 ng/mL |
| C=C(C)[C@@H]1CC[C@]2(NCCN3CCS(=O)(=O)CC3)CC[C@]3(C)[C@H](CC[C@@H]4[C@@]5(C)CC=C(C6=CC[C@@](CF)(C(=O)O)CC6)C(C)(C)[C@@H]5CC[C@]43C)[C@@H]12 |  | HIV-1-positive treatment-naive adults, plasma | oral, 10 mg single dose, day 1, with food | 60 ng/mL |
| Cc1ccc(NC(=O)c2ccc(CN3CCN(C)CC3)cc2)cc1Nc1nccc(-c2cncc(-c3oncc3C)c2)n1 |  | Parkinson's disease patients, plasma | oral, 100 mg once daily, day 7, 7-day dosing, mean | 3320 ng/mL |
| Nc1nnc(CN[C@@H]2C[C@H]2c2ccc(OCc3ccccc3)cc2)o1 |  | healthy young adults | oral, 1.0 mg/day, day 1, multiple dose, mean | 6.83 ng/mL |

Repeated from above:
| Structure (SMILES) | test | test system | setting | Cmax |
| --- | --- | --- | --- | --- |
| N[C@]1(C(=O)O)[C@H]2[C@@H](C[C@@H]1F)[C@@H]2C(=O)O |  | healthy subjects, both sexes, plasma | oral, 10 mg TS-134 single dose, fed, mean | 34 ng/mL |
| COc1cc(OC)c(/C=C/S(=O)(=O)Cc2ccc(OC)c(NCC(=O)O)c2)c(OC)c1 |  | cancer patients, phase I, plasma | oral, 140 mg twice daily, day 1 cycle 1 | 200 ± 70 ng/mL |
